Experimental data collected from several papers.
Compare with care: the assays were run in different laboratories. “And” joins repeats or separate records; there may be more than shown. Numbers after ± are the reported error.
E3 ubiquitin-protein ligase NEDD4: E3 ubiquitin-protein ligase NEDD4 (Homo sapiens, UniProt P46934)
Grm2: Metabotropic glutamate receptor 2 (Grm2, Rattus norvegicus, UniProt P31421)
MAPK8: Mitogen-activated protein kinase 8 (MAPK8, Homo sapiens, UniProt P45983)
GRM4: Metabotropic glutamate receptor 4 (GRM4, Homo sapiens, UniProt Q14833)
RPA1 N-terminal domain: Replication protein A 70 kDa DNA-binding subunit, N-terminal domain (RPA1, Homo sapiens, UniProt P27694)

By UniProt entry, the sequences of proteins in these tests, tags left out. Residues count along the entry.
UniProt P46934, whole entry, looked up: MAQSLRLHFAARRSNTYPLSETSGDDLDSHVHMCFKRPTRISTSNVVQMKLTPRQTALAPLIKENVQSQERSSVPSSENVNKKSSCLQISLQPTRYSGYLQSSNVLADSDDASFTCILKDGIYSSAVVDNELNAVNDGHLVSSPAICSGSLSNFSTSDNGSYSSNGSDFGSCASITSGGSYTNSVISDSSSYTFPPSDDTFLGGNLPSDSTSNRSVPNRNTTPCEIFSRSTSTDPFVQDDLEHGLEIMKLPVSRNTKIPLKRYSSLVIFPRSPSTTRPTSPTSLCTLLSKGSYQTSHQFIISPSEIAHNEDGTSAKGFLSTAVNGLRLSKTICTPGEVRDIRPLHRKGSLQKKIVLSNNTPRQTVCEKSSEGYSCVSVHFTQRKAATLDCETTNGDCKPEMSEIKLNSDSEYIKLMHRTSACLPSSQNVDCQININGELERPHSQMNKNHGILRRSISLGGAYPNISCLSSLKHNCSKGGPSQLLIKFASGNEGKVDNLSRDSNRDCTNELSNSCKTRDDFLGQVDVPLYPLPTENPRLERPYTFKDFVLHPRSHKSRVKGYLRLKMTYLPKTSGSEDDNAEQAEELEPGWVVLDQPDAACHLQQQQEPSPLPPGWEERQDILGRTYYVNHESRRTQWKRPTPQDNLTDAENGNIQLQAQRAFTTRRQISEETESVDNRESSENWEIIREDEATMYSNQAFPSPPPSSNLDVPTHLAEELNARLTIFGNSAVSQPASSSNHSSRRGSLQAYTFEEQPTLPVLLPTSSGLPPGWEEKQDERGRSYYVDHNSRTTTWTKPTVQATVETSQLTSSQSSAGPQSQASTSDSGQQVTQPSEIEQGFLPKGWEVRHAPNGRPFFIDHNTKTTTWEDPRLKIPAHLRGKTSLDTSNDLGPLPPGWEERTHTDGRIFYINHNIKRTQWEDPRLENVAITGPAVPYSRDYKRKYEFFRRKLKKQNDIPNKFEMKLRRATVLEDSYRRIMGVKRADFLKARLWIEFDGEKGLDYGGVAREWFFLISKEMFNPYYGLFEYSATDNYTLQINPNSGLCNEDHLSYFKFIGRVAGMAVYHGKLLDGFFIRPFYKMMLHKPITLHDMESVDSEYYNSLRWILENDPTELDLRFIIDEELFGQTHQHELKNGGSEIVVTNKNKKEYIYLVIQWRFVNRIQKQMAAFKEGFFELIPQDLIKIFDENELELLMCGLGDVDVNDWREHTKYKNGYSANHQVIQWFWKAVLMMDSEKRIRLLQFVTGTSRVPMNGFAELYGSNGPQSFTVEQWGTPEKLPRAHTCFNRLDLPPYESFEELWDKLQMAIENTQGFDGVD
UniProt P31421, 19-872 limits assumed: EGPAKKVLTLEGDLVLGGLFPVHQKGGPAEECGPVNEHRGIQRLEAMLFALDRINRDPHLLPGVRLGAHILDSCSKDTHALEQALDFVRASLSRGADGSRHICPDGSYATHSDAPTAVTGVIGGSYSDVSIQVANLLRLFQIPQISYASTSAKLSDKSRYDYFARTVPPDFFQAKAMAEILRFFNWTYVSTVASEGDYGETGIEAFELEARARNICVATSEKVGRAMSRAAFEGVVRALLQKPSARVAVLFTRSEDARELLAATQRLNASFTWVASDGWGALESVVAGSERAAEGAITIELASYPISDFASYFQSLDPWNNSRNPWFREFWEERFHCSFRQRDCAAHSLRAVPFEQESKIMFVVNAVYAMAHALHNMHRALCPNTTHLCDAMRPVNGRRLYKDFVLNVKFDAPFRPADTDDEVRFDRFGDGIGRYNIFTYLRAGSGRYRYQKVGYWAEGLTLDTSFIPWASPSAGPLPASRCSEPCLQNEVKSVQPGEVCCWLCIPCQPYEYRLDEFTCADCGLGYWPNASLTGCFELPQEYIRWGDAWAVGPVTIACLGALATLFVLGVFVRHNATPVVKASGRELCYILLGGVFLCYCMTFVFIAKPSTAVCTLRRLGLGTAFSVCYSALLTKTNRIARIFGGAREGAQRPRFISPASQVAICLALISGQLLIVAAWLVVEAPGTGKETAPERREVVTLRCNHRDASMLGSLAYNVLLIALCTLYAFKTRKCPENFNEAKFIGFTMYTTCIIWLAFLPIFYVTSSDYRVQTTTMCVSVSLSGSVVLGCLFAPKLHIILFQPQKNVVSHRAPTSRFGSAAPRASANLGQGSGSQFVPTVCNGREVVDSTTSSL
UniProt P45983, 1-384 isoform 3: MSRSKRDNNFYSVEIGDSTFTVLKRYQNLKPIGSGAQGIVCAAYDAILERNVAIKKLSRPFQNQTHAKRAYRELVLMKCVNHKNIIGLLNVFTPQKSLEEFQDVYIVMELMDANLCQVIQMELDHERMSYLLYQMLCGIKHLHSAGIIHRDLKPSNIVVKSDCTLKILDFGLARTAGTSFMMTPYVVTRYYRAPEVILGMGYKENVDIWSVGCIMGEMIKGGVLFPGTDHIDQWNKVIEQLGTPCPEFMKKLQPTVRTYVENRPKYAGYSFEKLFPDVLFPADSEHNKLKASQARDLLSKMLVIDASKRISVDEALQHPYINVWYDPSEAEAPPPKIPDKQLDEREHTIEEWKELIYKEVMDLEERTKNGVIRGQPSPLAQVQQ
UniProt Q14833, 33-912 limits assumed: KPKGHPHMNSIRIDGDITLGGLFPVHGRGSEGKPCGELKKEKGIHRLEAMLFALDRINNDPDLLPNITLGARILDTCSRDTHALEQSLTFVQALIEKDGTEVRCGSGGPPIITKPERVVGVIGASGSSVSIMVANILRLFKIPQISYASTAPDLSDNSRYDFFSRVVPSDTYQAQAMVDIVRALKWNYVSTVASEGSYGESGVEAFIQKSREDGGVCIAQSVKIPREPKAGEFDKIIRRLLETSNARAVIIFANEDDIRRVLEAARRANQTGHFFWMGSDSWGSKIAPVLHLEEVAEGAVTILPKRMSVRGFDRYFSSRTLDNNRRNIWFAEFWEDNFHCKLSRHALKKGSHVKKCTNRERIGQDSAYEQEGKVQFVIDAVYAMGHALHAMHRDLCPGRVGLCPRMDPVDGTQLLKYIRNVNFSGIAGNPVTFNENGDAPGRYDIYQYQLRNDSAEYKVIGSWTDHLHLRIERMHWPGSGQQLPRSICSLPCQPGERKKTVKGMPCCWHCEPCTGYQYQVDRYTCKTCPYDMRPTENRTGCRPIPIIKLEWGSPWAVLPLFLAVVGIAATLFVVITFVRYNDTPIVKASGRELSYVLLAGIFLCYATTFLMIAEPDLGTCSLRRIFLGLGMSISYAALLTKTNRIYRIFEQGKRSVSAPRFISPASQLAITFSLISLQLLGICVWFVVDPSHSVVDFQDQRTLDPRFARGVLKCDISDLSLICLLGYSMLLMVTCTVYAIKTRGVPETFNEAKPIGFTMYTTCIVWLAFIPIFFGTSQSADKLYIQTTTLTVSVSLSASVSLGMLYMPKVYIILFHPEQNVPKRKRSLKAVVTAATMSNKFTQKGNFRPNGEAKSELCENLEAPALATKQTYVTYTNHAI
UniProt P05067, 672-713 limits assumed: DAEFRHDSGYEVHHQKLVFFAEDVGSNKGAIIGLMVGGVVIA
UniProt P05067, whole entry, looked up: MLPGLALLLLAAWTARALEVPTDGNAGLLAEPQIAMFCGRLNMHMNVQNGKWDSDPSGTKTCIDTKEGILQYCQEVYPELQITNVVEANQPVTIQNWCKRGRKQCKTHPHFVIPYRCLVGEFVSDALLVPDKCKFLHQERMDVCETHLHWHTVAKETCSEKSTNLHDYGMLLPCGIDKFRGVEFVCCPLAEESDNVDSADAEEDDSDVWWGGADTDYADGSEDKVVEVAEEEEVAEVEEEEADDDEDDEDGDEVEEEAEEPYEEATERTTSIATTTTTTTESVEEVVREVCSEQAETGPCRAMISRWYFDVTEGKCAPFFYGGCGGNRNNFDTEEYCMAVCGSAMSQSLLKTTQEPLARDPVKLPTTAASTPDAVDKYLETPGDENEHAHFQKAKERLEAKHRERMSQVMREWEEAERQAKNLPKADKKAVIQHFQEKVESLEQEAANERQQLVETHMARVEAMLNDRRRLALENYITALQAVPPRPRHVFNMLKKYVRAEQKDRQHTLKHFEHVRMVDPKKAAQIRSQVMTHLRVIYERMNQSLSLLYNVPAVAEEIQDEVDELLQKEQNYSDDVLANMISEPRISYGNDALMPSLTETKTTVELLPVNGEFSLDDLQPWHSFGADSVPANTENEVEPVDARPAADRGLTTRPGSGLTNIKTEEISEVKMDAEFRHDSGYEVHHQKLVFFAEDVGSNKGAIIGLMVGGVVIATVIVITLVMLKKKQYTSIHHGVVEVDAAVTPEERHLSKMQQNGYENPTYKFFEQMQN
UniProt Q2M2I8, whole entry: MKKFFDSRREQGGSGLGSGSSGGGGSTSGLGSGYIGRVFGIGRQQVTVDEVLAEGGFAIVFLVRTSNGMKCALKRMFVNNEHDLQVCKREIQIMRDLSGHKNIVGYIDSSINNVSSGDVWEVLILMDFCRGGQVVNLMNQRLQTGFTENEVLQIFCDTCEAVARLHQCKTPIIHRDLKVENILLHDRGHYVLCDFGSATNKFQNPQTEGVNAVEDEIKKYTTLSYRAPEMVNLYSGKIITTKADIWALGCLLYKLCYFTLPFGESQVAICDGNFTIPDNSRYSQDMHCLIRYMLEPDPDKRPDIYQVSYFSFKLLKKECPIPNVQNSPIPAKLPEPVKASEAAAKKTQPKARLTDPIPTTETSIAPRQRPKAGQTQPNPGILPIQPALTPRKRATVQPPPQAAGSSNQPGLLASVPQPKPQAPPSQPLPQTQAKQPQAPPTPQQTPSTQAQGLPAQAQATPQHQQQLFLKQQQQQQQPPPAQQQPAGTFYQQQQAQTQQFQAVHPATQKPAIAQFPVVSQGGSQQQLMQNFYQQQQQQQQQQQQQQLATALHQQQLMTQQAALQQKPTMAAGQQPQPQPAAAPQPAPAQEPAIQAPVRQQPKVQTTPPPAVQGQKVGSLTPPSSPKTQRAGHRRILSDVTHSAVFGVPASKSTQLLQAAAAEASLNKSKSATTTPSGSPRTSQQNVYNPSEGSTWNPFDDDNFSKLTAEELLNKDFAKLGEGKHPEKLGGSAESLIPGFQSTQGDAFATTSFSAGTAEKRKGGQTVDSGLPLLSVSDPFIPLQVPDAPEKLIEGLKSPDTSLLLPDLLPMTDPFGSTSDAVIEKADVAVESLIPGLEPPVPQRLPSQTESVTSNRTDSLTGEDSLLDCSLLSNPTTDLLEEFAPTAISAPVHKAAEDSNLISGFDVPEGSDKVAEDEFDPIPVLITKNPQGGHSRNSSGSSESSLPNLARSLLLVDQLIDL
UniProt Q3UFF7, whole entry: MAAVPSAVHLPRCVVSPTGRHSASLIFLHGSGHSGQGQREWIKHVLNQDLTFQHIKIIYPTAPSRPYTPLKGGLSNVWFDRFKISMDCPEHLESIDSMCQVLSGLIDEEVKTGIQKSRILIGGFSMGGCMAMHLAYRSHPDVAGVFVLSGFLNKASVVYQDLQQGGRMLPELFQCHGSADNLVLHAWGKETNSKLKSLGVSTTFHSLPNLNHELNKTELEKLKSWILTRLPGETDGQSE
UniProt O00519, whole entry: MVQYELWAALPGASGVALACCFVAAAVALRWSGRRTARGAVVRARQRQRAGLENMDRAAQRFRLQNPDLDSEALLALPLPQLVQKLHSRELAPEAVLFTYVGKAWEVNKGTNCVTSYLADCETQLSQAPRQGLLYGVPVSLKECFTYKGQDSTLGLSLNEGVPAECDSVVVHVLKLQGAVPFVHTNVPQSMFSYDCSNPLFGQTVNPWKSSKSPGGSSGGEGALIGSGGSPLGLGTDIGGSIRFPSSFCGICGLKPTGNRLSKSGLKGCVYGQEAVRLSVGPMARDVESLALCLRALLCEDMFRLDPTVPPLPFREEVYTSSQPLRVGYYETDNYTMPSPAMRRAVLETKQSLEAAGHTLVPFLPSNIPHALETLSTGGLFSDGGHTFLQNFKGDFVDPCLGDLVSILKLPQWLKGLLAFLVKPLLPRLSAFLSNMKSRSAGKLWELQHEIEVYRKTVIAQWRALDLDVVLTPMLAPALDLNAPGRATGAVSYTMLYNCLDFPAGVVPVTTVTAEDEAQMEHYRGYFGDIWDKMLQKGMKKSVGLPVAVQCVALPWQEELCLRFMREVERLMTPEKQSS
UniProt P46154, whole entry: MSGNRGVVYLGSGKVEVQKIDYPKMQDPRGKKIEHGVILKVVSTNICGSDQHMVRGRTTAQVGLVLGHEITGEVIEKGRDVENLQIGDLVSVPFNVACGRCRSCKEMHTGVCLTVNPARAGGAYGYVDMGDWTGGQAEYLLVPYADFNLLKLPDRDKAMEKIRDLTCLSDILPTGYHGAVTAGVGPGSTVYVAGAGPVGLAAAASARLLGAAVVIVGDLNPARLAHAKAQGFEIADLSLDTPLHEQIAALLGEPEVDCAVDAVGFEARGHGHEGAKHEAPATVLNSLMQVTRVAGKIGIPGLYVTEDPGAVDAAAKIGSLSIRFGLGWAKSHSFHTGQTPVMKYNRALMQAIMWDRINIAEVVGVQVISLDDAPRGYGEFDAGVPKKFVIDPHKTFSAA

O=S(=O)(Cc1ccc(-c2nc(-c3cccnc3)no2)o1)c1ccc(Cl)cc1
entropy change (Catenin beta-1, residues 141-305 (CTNNB1, Homo sapiens, UniProt P35222); isothermal titration calorimetry; concentration not given, 25 °C): 26.4 cal/(mol·K)

O=C1CCC(N2Cc3cc(-c4nc5ccccn5c4Cl)ccc3C2=O)C(=O)N1 (stereo not shown)
Dmax (WEE1/CRBN (Homo sapiens, UniProt P30291+Q96SW2); degrader, HiBiT; Jurkat; 5 h): 87%

CC(C)(C)OC(=O)CCC(C(=O)/C=C/c1ccc(O)c(OC(F)(F)F)c1)C(=O)/C=C/c1ccc(O)c(OC(F)(F)F)c1
Aβ band density (APP (Homo sapiens, UniProt P05067); SDS-PAGE western blot, refers to: Aβ1-42 species 75-200 kDa; 30 µM, 24 h, 37 °C, added: Aβ 10 µM; relative to: DMSO control): 1750 ± 927%

C/C=C/Cn1c(Cc2cc(OC)c(OC)c(OC)c2)nc2c(N)ncnc21
TΔS (Heat shock protein HSP 90-beta, N-terminal domain (HSP90AB1, Homo sapiens, UniProt P08238); isothermal titration calorimetry; 298 K): -2.42 ± 0.18 kcal/mol

CCOC(=O)/C=C/CNCCCCN1c2ccccc2CCc2ccc(Cl)cc21
ubiquitination TR-FRET signal AUC (E3 ubiquitin-protein ligase NEDD4; inhibitor, Ub-TR-FRET; 33.33 µM, 1 h preincubation, HECT domain, added: ATP 2 mM; higher = more ubiquitination): 9840 a.u. and 10500 a.u. and 9810 a.u. and 10100 a.u. and 18400 a.u. and 10800 a.u.

CC(C)n1nnc(-c2cc(Nc3ncnn4ccc(CN5CCC(N)CC5)c34)ccc2F)n1
potency fold decrease (AAK1 (Homo sapiens, UniProt Q2M2I8); enzyme activity, inhibitor; relative to: 18): 5 fold

CC(=O)N1CCN(c2ccc(Nc3ncc4c(n3)N(C)C(=O)N(c3cc(NC(=O)c5cccc(C(F)(F)F)c5)ccc3C)C4)cn2)CC1
GI50 (FGFR4/Transcription factor ETV6 (Homo sapiens, UniProt P22455+P41212, V550E); cell proliferation; Ba/F3 TEL-FGFR4 V550E; 72 h): 247 nM

Nc1nc(SCc2ccc(Cl)cc2)nn1S(=O)(=O)c1nc2ccccc2s1
activation (Lysophospholipase-like protein 1 (Mus musculus, UniProt Q3UFF7); activator, gel-based ABPP, FP-rhodamine; HEK293 overexpressing Lysophospholipase-like protein 1; 10 µM): 5%

NCC(c1ccc(O)cc1)c1ccc(Oc2ccccc2)cc1 (stereo not shown)
efficacy decrease (Trace amine-associated receptor 1 (Rattus norvegicus, UniProt Q923Y9, M268T); cAMP production, agonist; mutant; relative to: wild type): ≤ 12%

CN(Cc1cccnc1)c1ccc2c(c1)c(=O)c(C(N)=O)cn2-c1ccc(F)cc1
response (Grm2; calcium mobilization, negative allosteric modulator; 30 µM, added: glutamate 100 µM; relative to: glutamate maximum): 2.39 ± 0.13%

CCN(CC)c1ccc2c(-c3ccccc3C(=O)N(C)CCCC(=O)N[C@@H](CC(C)C)C(=O)N[C@@H](CCCNC(=N)N)C(=O)N[C@@H](CCCNC(=N)N)C(=O)N[C@@H](C)C(=O)N[C@@H](CO)C(=O)N[C@@H](CC(C)C)C(=O)NCC(=O)O)c3ccc(=[N+](CC)CC)cc-3oc2c1
conversion (PRKACA (Homo sapiens, UniProt P17612); substrate, HPLC-Vis, large-scale reaction; 100 µM, 1 h, pH 7.4, 25 °C, 10 mM MgCl2, added: ATP 1 mM, PKACα 4 nM): ~80%

Cc1ccc(F)cc1S(=O)(=O)n1nc(SCc2ccccc2)nc1N
FP-rhodamine labelling (LYPLAL1 (Homo sapiens, UniProt Q5VWZ2); activator, gel-based ABPP; purified protein; relative to: DMSO): 1.2 fold

COc1ccccc1Nc1c(C(=O)O)ccnc1C(=O)O
remaining activity (KDM4E (Homo sapiens, UniProt B2RXH2); inhibitor, FDH-coupled spectrophotometry, refers to: formaldehyde; 200 µM): 2%

COC(=O)[C@@]1(C)C=C(C(=O)Nc2cccc(C(=O)NC34CC(Nc5nccc(-c6cccnc6)n5)(C3)C4)c2)C(=O)CC1
remaining activity (MAPK8; kinase activity, inhibitor; 0.02032 µM, added: 10 mM GSH): 0.542 fraction of control

NCCOCCOCCNC(=O)[C@@H]1CCCCNC(=O)[C@H](Cc2ccc([N+](=O)[O-])cc2)NC(=O)[C@H](Cc2ccco2)NC(=O)C[C@H](O)[C@H](CC2CCCCC2)NC(=O)/C=C\C(=O)N1
enzyme activity increase (KDR (Homo sapiens, UniProt P35968); activator, Z'-LYTE; 100 µM): 300%

CSCC[C@H](NC(=O)[C@H](CC(C)C)NC(=O)[C@H](CC(N)=O)NC(=O)c1ccccc1N)C(=O)N[C@@H](CCCCN)C(=O)N[C@@H](CCCCN)C(=O)N[C@@H](CO)C(=O)N[C@H](C(=O)N[C@@H](CCCCNc1ccc([N+](=O)[O-])cc1[N+](=O)[O-])C(N)=O)[C@@H](C)O
kcat/Km (Mitochondrial intermediate peptidase (MIPEP, Homo sapiens, UniProt Q99797); substrate, FRET peptide hydrolysis): 22000 M⁻¹ s⁻¹

c1ccc2c(CCNCCSSCCNCCc3c[nH]c4ccccc34)c[nH]c2c1
activity increase (G6PD (Homo sapiens, UniProt P11413, R459L); activator; concentration not given, Canton mutant): 60%

COc1ccc(NC(=O)CN2CCCN(S(=O)(=O)c3ccsc3)CC2)c(OC)c1
maximal response (GRM4; calcium mobilization, positive allosteric modulator; CHO cells with Gqi5; added: glutamate; relative to: PHCCC maximal response): 35 ± 3.3%

N#Cc1cnc(Nc2nc3ccccc3o2)nc1C1CCCCC1
maximal response (Grm5 (Rattus norvegicus, UniProt P31424); calcium mobilization, negative allosteric modulator; added: glutamate EC80; relative to: glutamate maximum): 3.8 ± 0.8%

Cc1ncc(CCc2ccc3c(c2)c(=O)c(C(N)=O)cn3-c2ccc(F)cc2)cn1
response (Grm2; calcium mobilization, negative allosteric modulator; 30 µM, added: glutamate 100 µM; relative to: glutamate maximum): 1.52 ± 0.26%

O=C(Nc1ccc(F)cc1)C12CC1/C(=N\O)c1cc(Cl)ccc1O2 (stereo not shown)
response (GRM4; positive allosteric modulator, calcium mobilization; CHO expressing Gqi5; concentration not given, added: glutamate EC20; relative to: (±)-PHCCC): 18.2 ± 0.7%

O=C(CCl)Nc1ccc2c(Nc3ccccc3)ncnc2c1
protein mass increase (EPHB3 (Homo sapiens, UniProt P54753); ESI-MS; covalent adduct): 275 Da

CCOC(=O)/C=C/CNCCCN1c2ccccc2CCc2ccccc21
ubiquitination TR-FRET signal AUC (E3 ubiquitin-protein ligase NEDD4; inhibitor, Ub-TR-FRET; 0.4115 µM, 1 h preincubation, HECT domain, added: ATP 2 mM; higher = more ubiquitination): 126000 a.u. and 128000 a.u.

CCC(C)(N)c1cn(CC(C)(C)c2c[nH]c3ccccc23)nn1 (stereo not shown)
Emax (GLP1R (Homo sapiens, UniProt P43220); cAMP accumulation, positive allosteric modulator, HTRF; 0.6 µM, purified compound, added: GLP-1(9-36) at EC20; relative to: BETP): 104 ± 1%

CC(=O)Nc1ncc(CN2CC[C@H](Oc3cccc(F)n3)C[C@@H]2C)s1 [isotope labelled]
binding (Protein O-GlcNAcase (OGA, Homo sapiens, UniProt O60502); autoradiography; human striatum sections; 5 nM, radiolabelled compound): 3.7 nCi/mg

O=C(OC(C(F)(F)F)C(F)(F)F)N1CCc2c(cccc2-c2ccccc2)C1
activity (FAAH (Homo sapiens, UniProt O00519); enzyme activity, inhibitor, fluorescence AAMCA substrate; 1 µM): inactive

COC(=O)/C(=C/c1c[nH]c2ccc(OC)cc12)c1ccc(F)cc1
inhibition (Amyloid-beta precursor protein, Aβ1-40 (APP, Homo sapiens, UniProt P05067); Aβ40 aggregation, thioflavin T fluorescence; 25 µM): 0%

CCCCCCCC(=O)OCC(COP(=O)(O)OC1C(O)C(O)C(OP(=O)(O)O)C(OP(=O)(O)O)C1O)OC(=O)CCCCCCC (stereo not shown)
Hill coefficient (CNGA3/CNGB3 (Homo sapiens, UniProt Q16281+Q9NQW8); increase in cGMP K1/2, modulator, inside-out patch clamp; CNGA3/CNGB3 heteromer): 1.5

O=C(Nc1ccccc1C(=O)O)c1cccc(S(=O)(=O)Nc2ccc(Cl)c(Cl)c2)c1
ligand efficiency (RPA1 N-terminal domain; binding, fluorescence polarisation competition; added: FITC-ATRIP probe): 0.22

COc1ccc2nc(SCC(=O)Nc3ccc(OC(F)(F)F)cc3)[nH]c2c1
activity class (FPR1 (Homo sapiens, UniProt P21462); calcium mobilization, agonist; transfected HL-60 cells; concentration not given): active

Cc1ccc(C(=O)Nc2ccccc2C(=O)O)cc1S(=O)(=O)Nc1ccc(C(C)C)cc1
ligand efficiency (RPA1 N-terminal domain; binding, fluorescence polarisation competition; added: FITC-ATRIP probe): 0.17

COc1ccc(NC(=O)CN2CCCN(S(=O)(=O)c3ccco3)CC2)c(OC)c1
maximal response (GRM4; calcium mobilization, positive allosteric modulator; CHO cells with Gqi5; added: glutamate; relative to: PHCCC maximal response): 36.2%

Cc1cc(NC(=O)c2cccc(NC(=O)C3=CC(C)(C)CCC3=O)c2)ccc1Nc1nccc(-c2cccnc2)n1
remaining activity (MAPK8; kinase activity, inhibitor; 4.938 µM, unit not given, added: 10 mM GSH; relative to: DMSO): 0.239

COc1ccc(CNc2c(C(=O)O)ccnc2C(=O)O)cc1
remaining activity (fdhA (Pseudomonas putida, UniProt P46154); inhibitor, spectrophotometric; 200 µM, counterscreen): 100%
